{"data": "Results pooled from the literature", "note": "Each line is one published result; not all experiments were run side by side. Numbers after ± are the reported error."}
{"SMILES": "CCC(C(=O)Nc1sc(C(N)=O)c(C)c1C(=O)OC)c1ccc(F)cc1 (centres unmarked)", "test system": "PBS", "measurement": "thermodynamic solubility", "result": "5.87 µM"}
{"SMILES": "CC1(C)C(/C=C(\\Cl)C(F)(F)F)C1C(=O)OC(C#N)c1cccc(Oc2ccccc2)c1 (centres unmarked)", "test": "refers to: CYP3A4", "test system": "human, age 1 year", "measurement": "enzyme contribution to clearance", "result": "1.01%"}
{"SMILES": "CN1CC[C@@H](c2c(O)cc(O)c3c(=O)cc(-c4ccc(C(F)(F)F)cc4Cl)oc23)[C@@H]1CO", "test": "refers to: Constipation", "test system": "AML", "conditions": "oral, 100 mg, intermittent dosing", "measurement": "patients with adverse event", "result": "0%"}
{"SMILES": "NCCCC[C@@H]1NC(=O)[C@@H](Cc2c[nH]c3ccccc23)NC(=O)[C@H](c2ccccc2)NC(=O)[C@@H]2C[C@@H](OC(=O)NCCN)CN2C(=O)[C@H](Cc2ccccc2)NC(=O)[C@H](Cc2ccc(OCc3ccccc3)cc2)NC1=O", "test system": "healthy human volunteers", "conditions": "1950 µg twice daily", "measurement": "subjects with upper abdominal pain", "result": "9%"}
{"SMILES": "CC(C)(O)c1cc(Nc2cc(Oc3cn(C4CC4)nc3C3CCOCC3)ccn2)ccn1", "test": "Asthenia", "test system": "patients with advanced cancer, Japanese cohort", "conditions": "oral, dose not given, grade ≥3", "measurement": "treatment-related adverse events", "result": "0%"}
{"SMILES": "CC(C)[C@@H]1NC(=O)CNC(=O)[C@H](CC(N)=O)NC(=O)[C@H](CCCNC(=N)N)NC(=O)[C@H](Cc2ccc(O)cc2)NC(=O)[C@H](C(C)C)NC(=O)[C@@H](NC(=O)[C@@H](NC(=O)[C@H](CC(N)=O)NC(=O)[C@H](Cc2c[nH]c3ccccc23)NC(=O)[C@H](C)NC(=O)[C@H](Cc2ccccc2)NC(=O)CN)C(C)C)CSSC[C@@H](C(=O)N[C@@H](Cc2cnc[nH]2)C(=O)N[C@@H](CCCNC(=N)N)C(=O)N[C@@H](CCCNC(=N)N)C(=O)N[C@@H](C)C(=O)N[C@@H](CC(N)=O)C(N)=O)NC(=O)[C@H](C(C)C)NC(=O)[C@H](CCCNC(=N)N)NC1=O", "test system": "ICR mice, blood", "conditions": "intraperitoneal, 10 mg/kg, day 5", "measurement": "lymphocytes", "result": "75 ± 1.2%"}
{"SMILES": "Cn1c(-c2ccc(C(N)=O)cc2F)nnc1C(C)(C)Oc1c(F)cc(Cl)cc1F", "test system": "human", "conditions": "oral, dose not given, single ascending dose all doses", "measurement": "subjects with puncture site pain", "result": "5.6%"}
{"SMILES": "C[C@@H]1NC(=O)[C@H](CCCCNC(=O)CO/N=C/C(=O)NCCCC[C@@H]2NC(=O)[C@@H](Cc3ccccc3)NC(=O)[C@H](CC(=O)O)NC(=O)CNC(=O)[C@H](CCCNC(=N)N)NC2=O)NC(=O)CNC(=O)[C@@H]2CCCN2C(=O)[C@H](CCCCNC(=O)CO/N=C/C(=O)NCCCC[C@@H]2NC(=O)[C@@H](Cc3ccccc3)NC(=O)[C@H](CC(=O)O)NC(=O)CNC(=O)[C@H](CCCNC(=N)N)NC2=O)NC(=O)[C@H](CCCCNC(=O)CCNC(=O)CCNC(=O)CCNC(=O)[C@H](CCCCN)NC(=O)[C@H](Cc2ccccc2)NC(=O)CNC(=O)CN2CCCNCCNCCCNCC2)NC(=O)[C@H](CCCCNC(=O)CO/N=C/C(=O)NCCCC[C@@H]2NC(=O)[C@@H](Cc3ccccc3)NC(=O)[C@H](CC(=O)O)NC(=O)CNC(=O)[C@H](CCCNC(=N)N)NC2=O)NC(=O)CNC(=O)[C@@H]2CCCN2C(=O)[C@H](CCCCNC(=O)CO/N=C/C(=O)NCCCC[C@@H]2NC(=O)[C@@H](Cc3ccccc3)NC(=O)[C@H](CC(=O)O)NC(=O)CNC(=O)[C@H](CCCNC(=N)N)NC2=O)NC1=O [copper-64 labelled]", "test system": "normal mice, intestine", "conditions": "intravenous, 0.74 MBq, 24 h post-injection", "measurement": "tissue uptake", "result": "0.93 ± 0.07 %ID/g"}
{"SMILES": "NC(=O)c1cccc(-c2cc(OC(=O)NC3CCCCC3)ccc2O)c1", "test system": "mouse", "conditions": "intravenous, 10 mg/kg", "measurement": "volume of distribution", "result": "4.6 L/kg"}
{"SMILES": "COc1ncccc1-c1cnn2ccc(N3CCN(C(=O)OC(C)C)CC3)nc12", "test system": "mouse nerve ligation model, brain", "conditions": "oral, 3 mg/kg, 180 min after last dose, repeat dosing day 1", "measurement": "drug concentration", "result": "2300 nM"}
{"SMILES": "c1csc(CNc2cc[nH]n2)c1", "test": "micronucleus", "test system": "CD-1 mouse Hsd:ICR(CD-1), male, bone marrow", "conditions": "oral, 250 mg/kg/day, 3 days", "measurement": "PCE to total erythrocyte ratio", "result": 0.504}
{"SMILES": "CCOC(=O)COc1ncccc1Oc1cc(-n2c(=O)cc(C(F)(F)F)n(C)c2=O)c(F)cc1Cl", "test system": "Crl:CD(SD) rats, female", "conditions": "dietary, 90 days", "measurement": "NOAEL", "result": "300 ppm in diet"}
{"SMILES": "O=c1ccc2ccc3occc3c2o1", "test": "post-procedure stability", "test system": "rat plasma", "conditions": "1000 ng/mL, 1 h, room temperature", "measurement": "accuracy", "result": "82.2%"}
{"SMILES": "O=C(c1ccc(F)c(F)c1Nc1ccc(I)cc1F)N1CC(O)([C@@H]2CCCCN2)C1", "test system": "patients aged 2 to 6 years", "conditions": "oral, dose not given", "measurement": "serious adverse events", "result": "40%"}
{"SMILES": "O=C(Nc1ccccc1)C1CCN(C(=O)Oc2cccnc2)CC1", "test": "psychotropic effects VAS", "test system": "healthy women", "conditions": "100 mg", "scale": "baseline: pre-dose baseline, direction not given", "measurement": "change in external perception score", "result": 0}
{"SMILES": "COc1cc2c(Oc3ccc4[nH]c(C)cc4c3F)ccnc2cc1OCC1(N)CC1", "test system": "paediatric recurrent refractory sarcoma", "conditions": "concentration not given, whole group", "measurement": "grade 3 Appendicitis", "result": "2.9%"}
{"SMILES": "CC(C)C(=O)OC[C@H]1O[C@@H](n2ccc(NO)nc2=O)[C@H](O)[C@@H]1O", "test system": "rat maternal blood dialysate", "conditions": "5 ng/mL, 6 h, 10 °C, low QC concentration, together with: NHC 25 ng/mL", "measurement": "autosampler stability", "result": "101 ± 6.07%"}
{"SMILES": "CC[C@H](C)[C@@H]1NC(=O)[C@H](CC(C)C)NC(=O)[C@@H](CC(C)C)NC(=O)[C@H]2CCCN2C(=O)[C@H](Cc2ccc(OC)cc2)NC(=O)[C@@H](CC(C)C)NC1=O", "test": "LC/MS", "test system": "horizontal lipid bilayer", "conditions": "10 µM, 1 h, room temperature, 1% DMSO in PBS", "measurement": "Papp", "result": "300 ± 100 ×10⁻⁶ cm/s"}
{"SMILES": "COc1ncnn2ccc(-c3cnc4nc(C)n(Cc5nnc([C@@H](C)F)o5)c4c3)c12", "test system": "human", "conditions": "oral, dose not given, grade 3", "measurement": "patients with dehydration", "result": "0%"}
{"SMILES": "[Cl][212Pb][Cl]", "test": "refers to: 212Pb", "test system": "athymic mouse, C4-2 prostate xenograft, skull", "conditions": "intravenous, 2 h, below quantification limit", "measurement": "tissue uptake", "result": "7.3 ± 0.96 %ID/g"}
{"SMILES": "O.O.O.O.O.O.[Cl-].[Cl-].[Co+2]", "test system": "rat male, faeces", "conditions": "oral, 10 mg/kg single, day 3", "scale": "baseline: vehicle control subtracted", "measurement": "cobalt in faeces", "result": "1.69 µg/g"}
{"SMILES": "CCCSc1ccc2nc(NC(=O)OC)[nH]c2c1", "test system": "mouse, blood", "conditions": "oral, 50 mg/kg", "measurement": "blood pH", "result": 7.54}
{"SMILES": "CC(=O)c1c(C)c2cnc(Nc3ccc(C4CCN(CCS(C)(=O)=O)CC4)cn3)nc2n(C2CCCC2)c1=O", "test system": "human patients, plasma", "conditions": "oral, 100 mg twice daily, day 21 multiple doses, together with: fulvestrant", "measurement": "Tmax", "result": "1.88 h"}
{"SMILES": "COc1ccc(-c2c(-c3ccc(C#N)c(F)c3)nc(N3CCC(N)CC3)n(C)c2=O)cc1F", "test": "refers to: Dysgeusia", "test system": "neuroendocrine neoplasm patients", "conditions": "oral, 60 mg, any grade, dose expansion", "measurement": "treatment-related adverse event incidence", "result": "13%"}
{"SMILES": "Cc1cccc(Cn2nc(C3CC3)c3c(NC(=O)c4cnc5cc(OCCN6CCN(C)CC6)ccn45)cccc32)n1", "test": "CTCAE v4.03, refers to: decreased appetite", "test system": "platinum-resistant ovarian cancer patients", "conditions": "oral, dose not given, together with: pembrolizumab IV every 3 weeks", "measurement": "all-cause adverse events", "result": "18.2%"}
{"SMILES": "Cc1ccccc1C(=O)NN=Cc1ccc(O)c(Br)c1", "test system": "normal C3H/HeN mouse, plasma", "conditions": "intraperitoneal, 1.6 mg/kg", "measurement": "Cmax", "result": "112 ng/mL"}
{"SMILES": "C[C@@H](NC(=O)N1C(=O)[C@H](Cc2ccnc(N)c2)[C@H]1C(=O)O)C1CCCCC1", "test system": "healthy adult Chinese volunteers", "conditions": "continuous intravenous infusion, 1.0 mg/kg/h, 5-day infusion, CTCAE 5.0 grading", "measurement": "abnormal liver function leading to discontinuation", "result": "0%"}
{"SMILES": "CC(C)Nc1ccnc(Nc2cccc(-c3cccnc3)c2)n1", "test": "refers to: alkaline phosphatase", "test system": "mouse, blood", "conditions": "intraperitoneal, 5 mg/kg", "measurement": "blood chemistry", "result": "207 U/L"}
{"SMILES": "CCCCCOc1ccc(-c2ccc(-c3ccc(C(=O)N[C@H]4C[C@@H](O)[C@@H](OCC[N+](C)(C)C)NC(=O)[C@@H]5[C@@H](O)[C@@H](C)CN5C(=O)[C@H]([C@@H](C)O)NC(=O)[C@H]([C@H](O)[C@@H](O)c5ccc(O)cc5)NC(=O)[C@@H]5C[C@@H](O)CN5C(=O)[C@H]([C@@H](C)O)NC4=O)cc3)cc2)cc1", "test system": "adult patients not in ICU, plasma", "conditions": "intravenous, 400 mg loading, after first dose, mean", "measurement": "AUC(0-168 h)", "result": "811 µg·h/mL"}
{"SMILES": "CCc1ccc(CC/C=C/c2ccc3c(c2)C(=O)CC3)cc1", "test system": "Sprague-Dawley rat, male", "conditions": "oral, 120 mg/kg/day, 14 days", "measurement": "Globulin", "result": "19.8 g/L"}
{"SMILES": "CC(C)[C@@H](CS(=O)(=O)C(C)C)N1C(=O)[C@@](C)(CC(=O)O)C[C@H](c2cccc(Cl)c2)[C@H]1c1ccc(Cl)cc1", "test": "LC-MS/MS", "test system": "athymic nude mice, PDX subcutaneous, tumour", "conditions": "oral, 10 mg/kg twice daily, 2 h after second dose", "measurement": "tumour concentration", "result": "177 nM"}
{"SMILES": "C[C@]1(CO)Cc2ncn(-c3ccc(C#N)c(Cl)c3)c2C(=O)O1", "test system": "healthy Chinese subjects", "conditions": "dose not given, single dose, all doses", "measurement": "drug-related orthostatic hypotension", "result": "4.2%"}
{"SMILES": "C=CC(=O)N1CCC(c2ccc(C(N)=O)c(-c3ccc(Oc4ccccc4)cc3)n2)CC1", "test": "CTCAE 4.03", "test system": "patients with relapsed/refractory MCL", "conditions": "oral, 100 mg twice daily", "measurement": "incidence of fatal serious TEAEs", "result": "0%"}
{"SMILES": "Oc1ccc(CSCc2ccc(O)cc2)cc1", "test system": "ICR mice male", "conditions": "oral, 6000 mg/kg, day 8, acute toxicity", "measurement": "body weight", "result": "35.9 ± 1.87 g"}
{"SMILES": "CC(C)c1nc(N(C)S(C)(=O)=O)nc(-c2ccc(F)cc2)c1/C=C/[C@@H](O)C[C@@H](O)CC(=O)O", "test system": "healthy human volunteers", "conditions": "oral, 10 mg, monotherapy", "scale": "baseline: subjects", "measurement": "fatal TEAE incidence", "result": "0%"}
{"SMILES": "C[C@@H]1OC(=O)NN=C1c1ccc(-c2ccc(F)cc2)c(C(F)(F)F)c1", "test": "phase I trial, refers to: Dyspnoea worst grade 2", "test system": "human patients", "conditions": "10 mg loading then 0.5 mg daily", "measurement": "patients with adverse event", "result": "0%"}
{"SMILES": "C1=Cc2nc1cc1ccc([n-]1)c(C1CC1)c1nc(cc3ccc([n-]3)c2C2CC2)C=C1.CC(=O)[O-].[Mn+3]", "test": "LC-MS/MS", "test system": "Sprague-Dawley rat, plasma", "conditions": "oral gavage, dose not given, 120 min, individual rat Rat1", "measurement": "plasma concentration", "result": "96 ng/mL"}
{"SMILES": "CO[C@H]1C[C@@H]2CC[C@@H](C)[C@@](O)(O2)C(=O)C(=O)N2CCCC[C@H]2C(=O)O[C@H]([C@H](C)C[C@@H]2CC[C@@H](OC(=O)NCCOCCOCCOCCOCCOCCOCCOCCOCCC(=O)N3CCc4cc(Cn5nc(-c6ccc7oc(N)nc7c6)c6c(N)ncnc65)ccc4C3)[C@H](OC)C2)C[C@@H](O)[C@H](C)/C=C(\\C)[C@@H](O)[C@@H](OC)C(=O)[C@H](C)C[C@H](C)/C=C/C=C/C=C/1C", "test system": "patients with advanced solid tumours", "conditions": "intravenous, 6 mg weekly, grade 3 or higher", "measurement": "fatigue incidence", "result": "8.3%"}
